Results pooled from the literature.
Compare with care: the assays were run in different laboratories.
Target: Cholinesterase (BCHE, Homo sapiens, UniProt P06276)
Sequence of UniProt P06276 (whole entry, looked up): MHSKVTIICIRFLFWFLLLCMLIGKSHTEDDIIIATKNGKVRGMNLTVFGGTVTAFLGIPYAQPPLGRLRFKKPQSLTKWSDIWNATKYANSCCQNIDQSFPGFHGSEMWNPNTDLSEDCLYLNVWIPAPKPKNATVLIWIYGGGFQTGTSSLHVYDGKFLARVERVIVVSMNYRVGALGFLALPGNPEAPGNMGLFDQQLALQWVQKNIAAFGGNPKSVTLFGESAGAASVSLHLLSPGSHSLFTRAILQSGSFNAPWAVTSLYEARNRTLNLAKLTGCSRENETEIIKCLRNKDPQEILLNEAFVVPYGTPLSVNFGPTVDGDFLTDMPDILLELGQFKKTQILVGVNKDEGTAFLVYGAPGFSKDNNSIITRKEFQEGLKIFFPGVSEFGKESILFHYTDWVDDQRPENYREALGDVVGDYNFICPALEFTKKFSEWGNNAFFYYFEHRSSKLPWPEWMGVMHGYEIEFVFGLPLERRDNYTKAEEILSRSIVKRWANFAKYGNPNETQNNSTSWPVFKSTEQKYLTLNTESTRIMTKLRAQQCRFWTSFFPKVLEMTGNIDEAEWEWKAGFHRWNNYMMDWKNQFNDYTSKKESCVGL
Read-out: enzyme activity
Mode: inhibitor

Structure (SMILES)	test	setting	IC50
Fc1ccc(N2CCN(Cc3nnc(-c4ccccc4)o3)CC2)cc1	Ellman	–	> 10 µM
C[C@]12CCNC1Nc1ccc(OC(=O)Nc3ccccc3)cc12 (single isomer, unassigned; (+))	Ellman	pH 8, with preincubation	> 10 µM
COc1cc2c(cc1OC)C(=O)/C(=C\c1ccc(N3CCOCC3)cc1)C2	Ellman	–	631 µM
CO/C(=C\C(=O)c1ccc2occc2c1OC)c1ccccc1	Ellman	–	108 µM
COc1cc2c(cc1OC)C(=O)/C(=C\c1ccc([N+](C)(C)C)cc1)C2	–	–	> 1000 µM
COc1ccc(-c2coc3cc(OCCN4CCCC[C@@H]4C)ccc3c2=O)cc1	Ellman	–	25.8 µM
N#Cc1ccc(C2=Nn3c(nnc3-c3ccc(-n4nc(-c5ccccc5O)nc4-c4ccccc4O)cc3)SC2)cc1	Ellman	–	0.28 µM
O=C(NCc1ccc[n+](Cc2ccc(Cl)cc2Cl)c1)c1ccc(CN2C(=O)c3ccccc3C2=O)cc1	Ellman	–	7.31 µM
O=C(O)/C=C/c1cc(O)cc(O)c1	Ellman	–	433 µM
COc1cc2c(cc1OC)C(=O)/C(=C\c1ccc(-n3cccn3)cc1)C2	Ellman	–	398 µM
CC1(C)C=Cc2c(cc(O)c3c(=O)cc(-c4ccccc4)oc23)O1	–	–	7.6 µM
O=C(NCc1ccc[n+](Cc2ccc(C(F)(F)F)cc2)c1)c1ccc(CN2C(=O)c3ccccc3C2=O)cc1	Ellman	–	0.18 µM
CCN(CCCCOc1ccc(CCC(=O)N2CCC(Cc3ccccc3)CC2)cc1OC)Cc1ccccc1	Ellman	–	0.066 µM
CC12CC(c3ccoc3)OC(=O)C1CCC1(C)C2C2OC(=O)C1(O)C1OC21 (centres unmarked)	Ellman	–	1090 µM
COc1cc2c(c3oc(-c4ccccc4)cc(=O)c13)C=CC(C)(C)O2	Ellman	–	8.27 µM
COc1ccc(C2=Nn3c(nnc3-c3ccc(-n4nc(-c5ccccc5O)nc4-c4ccccc4O)cc3)SC2)cc1	Ellman	–	0.13 µM
O=C(O)/C=C/c1ccc(O)cc1	Ellman	–	487 µM
CC1(C)C=Cc2c(ccc3c(=O)cc(-c4ccccc4)oc23)O1	Ellman	–	4.04 µM
COc1cc2c(cc1OC)C(=O)/C(=C\c1ccc(-n3ccnc3)cc1)C2	Ellman	–	501 µM
Oc1ccccc1-c1nc(-c2ccccc2O)n(-c2ccc(-c3nnc4n3N=C(c3ccccc3)CS4)cc2)n1	Ellman	–	3.66 µM

Excerpt of the above:
Structure (SMILES)	test	setting	IC50
CC1(C)C=Cc2c(cc(O)c3c(=O)cc(-c4ccccc4)oc23)O1	–	–	7.6 µM
